Experimental data pooled from the literature.
Lines come from different studies, so protocols differ.
Cell line: human cells

| Structure (SMILES) | observed | concentration | time | measurement | result |
| --- | --- | --- | --- | --- | --- |
| Nc1nc(Nc2ccc(Cl)cc2)nn1S(=O)(=O)c1ccc2ccccc2c1 |  |  |  | CC50 | 8.7 µM |
| COc1cc(/C=C/c2ccc3c(c2)[C@@H](c2cc(OC)cc(OC)c2)[C@H](c2ccc(O)cc2)O3)cc(OC)c1 |  |  | 48 (unit not given) | CC50 | 79.3 µM |
| O=C(Oc1cncc(Cl)c1)c1cccc2[nH]ccc12 | cytotoxicity |  | 48 (unit not given) | CC50 | 81 µM |
| COc1ccc(-c2cnc3c(C#Cc4cccnc4)snc3c2)cc1OC |  |  | 48 (unit not given) | CC50 | > 10 µM |
| Cc1ccc(NS(=O)(=O)c2c(C(=O)N3CCCCCC3)c(C)n(C)c2C)c(Cl)c1 |  | 33.33 µM | 60 h | viability | 98.2% |
| Oc1ccc([C@@H]2Oc3ccc(/C=C/c4cc(O)cc(O)c4)cc3[C@H]2c2cc(O)cc(O)c2)cc1 |  |  | 1 (unit not given) | CC50 | 502 µM |
| COc1ccc(NN2CCCC3(C2)Nc2cccnc2N=C3NC2CCCC2)c(C)c1 (stereo not shown) |  |  | 72 (unit not given) | CC50 | > 100 µM |
| Nc1nc(Nc2ccc(Cl)c(Cl)c2)nn1S(=O)(=O)c1ccc2ccccc2c1 |  |  |  | CC50 | 17 µM |
| CC(C)C[C@H](NC(=O)OCc1ccccc1)C(=O)N[C@H](C=O)C[C@@H]1CCNC1=O | cytotoxicity |  | 48 (unit not given) | CC50 | > 50 µM |
| COc1cc(OC)cc([C@@H]2c3cc(/C=C/c4cc(O)cc(O)c4)ccc3O[C@H]2c2ccc(O)cc2)c1 |  |  | 48 (unit not given) | CC50 | 15.8 µM |

For quick reference, copied from above:
| Structure (SMILES) | observed | concentration | time | measurement | result |
| --- | --- | --- | --- | --- | --- |
| Nc1nc(Nc2ccc(Cl)c(Cl)c2)nn1S(=O)(=O)c1ccc2ccccc2c1 |  |  |  | CC50 | 17 µM |
